{"data": "Assay results of several laboratories", "note": "Parts stem from different laboratories: compare values within a part only. “And” joins repeats or separate records; there may be more than shown."}
{"data": "Sample 1", "SMILES": "CCOc1ccc2nc(Sc3nc(Nc4ccc(I)cc4)nc(N4CCOCC4)n3)sc2c1", "target": "1-phosphatidylinositol 3-phosphate 5-kinase (PIKFYVE, Homo sapiens, UniProt Q9Y2I7)", "method": "KINOMEscan", "setting": "unit not given", "relative to": "DMSO", "chain of UniProt Q9Y2I7 (whole entry, looked up)": "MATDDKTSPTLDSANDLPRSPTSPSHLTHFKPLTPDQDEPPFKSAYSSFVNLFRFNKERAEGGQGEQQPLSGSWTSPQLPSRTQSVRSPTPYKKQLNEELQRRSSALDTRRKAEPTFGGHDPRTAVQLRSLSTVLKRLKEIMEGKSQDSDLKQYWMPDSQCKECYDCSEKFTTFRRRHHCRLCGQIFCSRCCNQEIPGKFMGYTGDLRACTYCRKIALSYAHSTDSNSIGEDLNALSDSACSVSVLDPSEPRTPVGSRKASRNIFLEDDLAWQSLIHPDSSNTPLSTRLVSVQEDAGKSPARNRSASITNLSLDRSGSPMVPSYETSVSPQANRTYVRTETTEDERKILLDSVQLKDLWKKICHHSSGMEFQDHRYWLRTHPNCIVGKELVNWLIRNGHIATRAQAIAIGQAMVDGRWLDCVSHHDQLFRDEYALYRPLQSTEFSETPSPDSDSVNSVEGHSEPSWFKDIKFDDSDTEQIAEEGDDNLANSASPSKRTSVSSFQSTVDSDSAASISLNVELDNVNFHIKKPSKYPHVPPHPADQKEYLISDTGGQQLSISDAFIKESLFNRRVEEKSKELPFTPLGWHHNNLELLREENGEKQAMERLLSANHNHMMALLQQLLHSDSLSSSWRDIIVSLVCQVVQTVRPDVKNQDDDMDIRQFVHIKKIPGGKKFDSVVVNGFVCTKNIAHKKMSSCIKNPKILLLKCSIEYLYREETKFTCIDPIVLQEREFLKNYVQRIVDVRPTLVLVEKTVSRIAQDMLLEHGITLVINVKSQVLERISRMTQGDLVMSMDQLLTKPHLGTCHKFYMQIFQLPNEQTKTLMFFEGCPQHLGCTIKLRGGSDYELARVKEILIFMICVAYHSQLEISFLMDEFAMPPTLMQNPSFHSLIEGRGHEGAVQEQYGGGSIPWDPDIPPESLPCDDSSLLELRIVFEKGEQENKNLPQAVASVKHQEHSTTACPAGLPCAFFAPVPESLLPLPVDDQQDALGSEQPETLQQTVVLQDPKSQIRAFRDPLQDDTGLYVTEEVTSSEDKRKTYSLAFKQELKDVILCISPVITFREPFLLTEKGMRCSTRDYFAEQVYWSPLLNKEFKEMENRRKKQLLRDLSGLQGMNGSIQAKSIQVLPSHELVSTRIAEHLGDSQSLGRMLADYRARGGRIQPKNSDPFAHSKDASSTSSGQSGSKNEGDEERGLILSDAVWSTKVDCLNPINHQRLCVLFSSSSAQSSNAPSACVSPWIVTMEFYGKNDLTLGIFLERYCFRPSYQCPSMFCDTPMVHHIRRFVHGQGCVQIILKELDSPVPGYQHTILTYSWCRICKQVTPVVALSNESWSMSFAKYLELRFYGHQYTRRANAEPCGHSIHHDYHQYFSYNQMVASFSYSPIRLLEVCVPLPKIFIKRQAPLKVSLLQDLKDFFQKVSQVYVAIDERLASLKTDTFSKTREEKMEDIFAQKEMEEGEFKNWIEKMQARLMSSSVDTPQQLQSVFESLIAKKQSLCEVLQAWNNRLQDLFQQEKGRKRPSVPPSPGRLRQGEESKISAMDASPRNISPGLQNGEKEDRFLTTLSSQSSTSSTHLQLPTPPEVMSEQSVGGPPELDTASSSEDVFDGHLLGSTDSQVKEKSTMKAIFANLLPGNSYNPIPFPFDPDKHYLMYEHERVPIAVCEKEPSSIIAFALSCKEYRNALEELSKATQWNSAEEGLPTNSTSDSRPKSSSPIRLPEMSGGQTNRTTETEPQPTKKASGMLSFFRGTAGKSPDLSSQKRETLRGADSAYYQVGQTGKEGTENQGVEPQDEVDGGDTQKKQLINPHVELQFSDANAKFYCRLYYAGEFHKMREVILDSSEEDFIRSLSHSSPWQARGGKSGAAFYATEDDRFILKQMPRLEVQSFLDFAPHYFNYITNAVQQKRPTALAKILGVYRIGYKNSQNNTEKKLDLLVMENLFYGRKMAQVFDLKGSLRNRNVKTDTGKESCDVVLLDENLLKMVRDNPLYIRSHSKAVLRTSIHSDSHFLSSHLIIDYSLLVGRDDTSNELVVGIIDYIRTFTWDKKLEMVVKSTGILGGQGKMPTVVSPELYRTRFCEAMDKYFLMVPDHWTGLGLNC"}
{"concentration": "40.7 nM", "remaining binding": "0.462 and 0.438"}
{"concentration": "10000 nM", "remaining binding": "0.00233 and 0.00337"}
{"concentration": "3300 nM", "remaining binding": "0.00686 and 0.00481"}
{"concentration": "9900 nM", "remaining binding": "0.00259 and 0.00238"}
{"concentration": "13.6 nM", "remaining binding": "0.688 and 0.682"}
{"concentration": "4.53 nM", "remaining binding": "0.93 and 0.853"}
{"concentration": "123 nM", "remaining binding": "0.209 and 0.191"}
{"concentration": "0.168 nM", "remaining binding": "0.938 and 0.764"}
{"data": "Sample 2", "target": "Sodium-dependent neutral amino acid transporter B(0)AT1 (SLC6A19, Homo sapiens, UniProt Q695T7)", "effect on": "membrane potential", "method": "FLIPR membrane potential", "cells": "CHO-BC cells", "concentration": "concentration not given", "setting": "first screen", "relative to": "uninhibited control", "chain of UniProt Q695T7 (whole entry, looked up)": "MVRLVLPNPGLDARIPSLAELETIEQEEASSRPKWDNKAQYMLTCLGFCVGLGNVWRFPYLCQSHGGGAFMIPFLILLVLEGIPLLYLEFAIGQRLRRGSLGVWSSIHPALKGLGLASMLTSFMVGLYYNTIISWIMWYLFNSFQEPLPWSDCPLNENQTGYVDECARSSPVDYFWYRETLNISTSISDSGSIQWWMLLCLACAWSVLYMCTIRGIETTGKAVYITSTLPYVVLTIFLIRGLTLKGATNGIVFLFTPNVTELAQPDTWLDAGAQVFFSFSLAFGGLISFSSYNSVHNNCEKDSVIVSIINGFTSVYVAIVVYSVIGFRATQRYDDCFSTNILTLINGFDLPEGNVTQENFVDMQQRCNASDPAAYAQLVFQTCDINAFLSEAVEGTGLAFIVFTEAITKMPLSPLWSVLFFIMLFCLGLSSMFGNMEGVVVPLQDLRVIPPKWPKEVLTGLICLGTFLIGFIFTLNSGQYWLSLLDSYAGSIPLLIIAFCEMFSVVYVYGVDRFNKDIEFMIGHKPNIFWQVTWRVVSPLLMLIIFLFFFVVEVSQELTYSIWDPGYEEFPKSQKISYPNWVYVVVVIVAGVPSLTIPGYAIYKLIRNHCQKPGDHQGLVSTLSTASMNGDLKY"}
{"Compound": "CC(C)NC(=O)COc1ccc(Br)cc1", "normalised transport activity": "0.619 and 0.581 and 0.416 and 0.609 and 0.54"}
{"Compound": "Cc1cc(OCC(=O)OC(C)C)cc(C)c1Cl", "normalised transport activity": "0.928 and 1.08 and 0.911 and 1.01"}
{"Compound": "Cc1cc(Cl)ccc1OCC(=O)NC(C)C", "normalised transport activity": "0.928 and 0.909 and 0.889 and 0.996"}
{"Compound": "CC(C)NC(=O)COc1ccc(Cl)cc1", "normalised transport activity": "0.716 and 0.649 and 0.675 and 0.665"}
{"Compound": "Cc1cc(OC(C)(C)C(=O)NC(C)C)cc(C)c1Cl", "normalised transport activity": "1.05 and 1.24 and 1.12 and 1.14"}
{"Compound": "CCCCNC(=O)COc1cc(C)c(Cl)c(C)c1", "normalised transport activity": "1.03 and 0.991 and 1.07 and 0.976"}
{"Compound": "CNC(=O)COc1cc(C)c(Cl)c(C)c1", "normalised transport activity": "0.592 and 0.639 and 0.647 and 0.685 and 0.651"}
{"Compound": "Cc1cc(OCC(=O)Nc2ccccc2)cc(C)c1Cl", "normalised transport activity": "1.14 and 1.07 and 0.982 and 0.991"}
{"data": "Further values, each from its own experiment"}
{"SMILES": "C=CCN1C(=O)C(O)(C(=O)O)Oc2cc(F)ccc21 (stereo not drawn)", "target or system": "Arabidopsis thaliana", "assay": "root length", "system": "Col-0", "conditions": "6.25 µg/mL, 7 days, seed germination, dark", "measurement": "inhibition", "result": "17.6%"}
{"SMILES": "Cn1cc(-c2cccc(CN3CCC4(CC3)COc3c4ccc4c3CN([C@H]3CCC(=O)NC3=O)C4=O)c2)cn1", "system": "Crbn I391V mouse, MC-38 tumour", "conditions": "oral, daily, 30 mg/kg, animals reaching endpoint, added: anti-LAG3 antibody 10 mg/kg i.p. weekly", "measurement": "time to tumour volume 2000 mm3", "result": "43 days and 28 days and 20 days and 57 days and 36 days"}
{"note": "A few entries again (sample 1):"}
{"concentration": "4.53 nM", "remaining binding": "0.93 and 0.853"}
